Results gathered from unrelated publications.
Compare with care: the assays were run in different laboratories. Values joined by “and” are separate records of one study, mostly repeats; a detail may differ. ± marks the error that the study gave.
Chain of UniProt P09936 (whole entry, looked up): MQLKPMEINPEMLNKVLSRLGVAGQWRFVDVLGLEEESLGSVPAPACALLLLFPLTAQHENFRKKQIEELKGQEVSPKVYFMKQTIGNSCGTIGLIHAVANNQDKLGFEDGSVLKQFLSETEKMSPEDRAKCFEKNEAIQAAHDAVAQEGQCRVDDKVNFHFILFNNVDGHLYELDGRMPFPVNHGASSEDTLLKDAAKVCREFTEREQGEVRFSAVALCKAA

`O=C(CCCN1CC=C(n2c(=O)[nH]c3ccccc32)CC1)c1ccc(F)cc1`: “mean blood pressure” 40 ± 0.3 mmHg (male Hartley guinea pigs, anaesthetized; intravenous, 0.1 mg/kg group, baseline before infusion).
With `C[C@@H](N)C1CCN(S(=O)(=O)c2cccc3cnccc23)CC1` the TEAE incidence was 10% (refers to: Epistaxis; healthy volunteers; 150 mg, fed).
`CN(CC#N)C(=O)C[C@H](Nc1nc2ccccc2[nH]1)c1cccc(C(F)(F)F)c1` — result for “apparent volume of distribution”: 91.5 ± 25.1 L (human; intravenous infusion, 3 mg/kg, 1 mg/mL formulation).
The concentration of `O=C(N[C@H](Cc1c[nH]c2ccccc12)C(=O)Nc1ccncc1)c1ccc(N2CCN(c3ccc(F)cc3F)CC2)cc1F` is reported as 47700 nM (Swiss Webster mouse, female, liver; oral, 50 mg/kg, 8 h, 20% HPβCD vehicle).
With `COc1c(OCCCN2CCOCC2=O)ccc2c3n(c(=NC(=O)c4cnc(N)nc4)nc12)CCN3` the tlast was 49.3 h (patients with advanced malignancies, plasma; 0.8 mg/kg copanlisib, median, cycle 1 day 1, with: gemcitabine).
For `CCC(CC)C(=O)Oc1cccc(C(O)CCN)c1.O=CO` (stereo not drawn), “ERG a-wave amplitude” read 11 µV and 48 µV and 18 µV and 19 µV and 46 µV and 54 µV (scotopic ERG; BALB/cJ mice; intraperitoneal, 10 mg/kg, 2 h dark adaptation, with: 10,000 lx photobleach, 10 min).
With `Cc1cccc(CNC(=O)c2cn(CCNC(=O)c3ccccc3Sc3c([N+](=O)[O-])ncn3C)c3cc4c(cc3c2=O)OCO4)n1` the remaining compound was 94.1% (human, whole blood; 1 µM, 0.5 h).
For `COc1cccc(OC)c1-c1cc(C(=O)NC2(C(=O)O)C3CC4CC(C3)CC2C4)nn1-c1ccc(C(=O)N(C)CCCN(C)CCCN(C)C(=O)CN2CCN(CC(=O)[O-])CCN(CC(=O)[O-])CCN(CC(=O)[O-])CC2)cc1C(C)C.[177Lu+3]` (stereo not drawn), the spleen uptake was 0.06 ± 0.03 % ID (SCID mouse, HT-29 xenograft; iv, 4 h).
For `CNC(=O)c1cc(Oc2ccc(NC(=O)Nc3ccc(Cl)c(C(F)(F)F)c3)cc2)ccn1`, the AST was 135 ± 90.8 U/L (NOD-SCID mouse, serum; ip, 30 mg/kg).
`COc1ccc(C[C@@H](C)[C@@H](C)Cc2ccc(OC)c(OC)c2)cc1OC` gave a Tmax of 2 h (beagle dog female, plasma; oral, 300 mg/kg/day, day 1, median).
`O=C(Nc1nc2cccc(-c3ccc(CN4CCS(=O)(=O)CC4)cc3)n2n1)C1CC1`: “treatment-emergent adverse events” 0% (refers to: regurgitation; rheumatoid arthritis patients; oral, 75 mg once daily, 4 weeks, any relatedness).
`CC(C)(C(=O)N1CCOc2c(C#N)cncc2C1)C(F)F` — result for “subjects with TEAE”: 0% (refers to: general and administration site disorders; human, both sexes; oral, 20 mg once daily, 14 days, multiple ascending dose).
`Cc1ccc(Sc2ccccc2N2CCNCC2)c(C)c1`: “participants with TEAE” 0% (refers to: metrorrhagia; healthy adult men; oral, 10 mg daily, 12 days).
`COc1cc2c3c(n(CCCN4CCOCC4)c(=O)c2cc1OC)-c1cc2c(cc1C3=O)OCO2` has a Cmax of 2120 ng/mL and 1020 ng/mL (beagle dog, female, plasma; intravenous infusion, 430 mg/m^2, 1 h infusion).
The CLss/F of `CCN(CCO)CCCC(C)Nc1ccnc2cc(Cl)ccc12` (stereo not drawn) is reported as 11.2 L/h and 13.2 L/h and 14.6 L/h and 11.8 L/h and 10.2 L/h (human patient; 400 mg, steady state).
`CC1(C)S[C@@H]2[C@H](NC(=O)[C@H](N)c3ccc(O)cc3)C(=O)N2[C@H]1C(=O)O`: “mean blood pressure” 39 ± 0.2 mmHg (male Hartley guinea pigs, anaesthetized; intravenous, 3 mg/kg over 10 min, after infusion).
`C=CC(=O)Nc1cc(Nc2nccc(-c3cn(C)c4ccccc34)n2)c(OC)cc1N(C)CCN(C)C` gave a CLss/F of 14.8 L/h (human patients; oral, cycle 3 day 1, mean, with: chemotherapy).
The unbound C0 of `Cc1c(Br)cc(NC(=O)CS(=O)(=O)O)cc1Br` is reported as less than 85 nM (CD-1 mice, whole blood; intravenous, 2 mg/kg).
With `O=C(O)CNC(=O)c1ncccc1O` the pKa (basic) was less than 2.
`O=C(O)c1cc(O)c(O)c(O)c1` gave a C0 of 11400 ± 3940 nM (chicken Ross broiler, male, serum; intravenous, 0.49 mg/kg).
Under “unbound brain concentration”, `COc1cc2c(Nc3ccc(Cl)c(Cl)c3F)ncnc2cc1OC[C@@H]1C[C@@H]2CN(C)C[C@@H]2C1` is recorded as 3.24 nM (FVB wild-type mice, brain; intraperitoneal infusion (osmotic pump), 10 µg/h, 48 h).
`CNC(=O)c1ccc(-c2cnc3ncc(Cc4ccc5ncccc5c4)n3n2)cc1F`: “bilirubin increase incidence (all grades)” 11% (CTCAE v4.0, any causality; human gastric cancer patients; oral, 600 mg twice daily, expansion cohort at RP2D).
For `CC(C)(C)c1ccc(O)c(CN(Cc2cc(C(C)(C)C)ccc2O)C2CCC(NC(N)=O)CC2)c1` (stereo not drawn), the t1/2 was roughly 7 h (C57BL/6 mouse, male, brain; intraperitoneal, oral, 10 mg/kg).
Under “papular rash incidence”, `Cc1cc(Nc2cc3ncccc3c(N[C@@H]3C[C@H]4CC[C@@H](C3)N4CCC#N)n2)n[nH]1` is recorded as 0% (healthy human subjects; oral, 10 mg, 14 days, multiple ascending dose).
The AUC0-inf ratio of `Cn1cncc1[C@@](N)(c1ccc(Cl)cc1)c1ccc2c(c1)c(-c1cccc(Cl)c1)cc(=O)n2C` is reported as 1.4 fold (human, plasma; 300 mg/m^2/dose, second cohort, mean; relative to: AUC0-inf at 200 mg/m^2/dose).
Under “stability relative error”, `CCOc1c([C@H](C)n2nc(C)c3c(N)ncnc32)cc(Cl)c(F)c1[C@@H]1CNC(=O)C1` is recorded as 10% (rat plasma; 800 ng/mL, 3 h, room temperature; relative to: nominal concentration).
`Cc1cnc(N2CC3(CCOCC3)C2)c(C(=O)Nc2ccc(C(=O)N3CCc4cc(C(=O)Nc5c(C)cccc5F)sc4-c4ccccc43)cc2)c1` has a plasma clearance of roughly 50% (rat; intravenous, 0.1 mg/kg; relative to: hepatic blood flow).
`CCN1/C(=C/C(C)=O)Sc2ccc(F)cc21` — result for “diastolic blood pressure change”: 105 ± 7.8% (cynomolgus monkey; oral, 10 mg/kg, 0.5 h post-dose; relative to: pre-dose).
With `N#C[C@@]12C[C@@H]1[C@@H](n1cnc3c(N[C@@H](C4CCC4)C4CC4)nc(I)nc31)[C@H](O)[C@@H]2O` the Vd was 72.2 L/kg (Wistar rat, male, plasma; oral, 10.0 mg/kg).
For `CNCCOC12CC3(C)CC(C)(CC(Cn4ncc(-c5ccc(N6CCc7cccc(C(=O)Nc8nc9ccccc9s8)c7C6)nc5C(=O)O)c4C)(C3)C1)C2`, “QTcV interval change” read 13 ms (beagle dog, male, anaesthetised; intravenous bolus, 0.03 mg/kg, 90 min; relative to: baseline).
For `Cc1ccc(C(=O)Nc2ccnc(S(N)(=O)=O)c2)c(N2CCCC(F)(F)CC2)n1`, “unbound plasma concentration” read 198 ± 14.5 nM (rhesus monkey, plasma; intravenous, dose not given, 60 min).
Under “subjects with adverse event”, `CC(C)n1c(Nc2cccnc2)nc2cnc(Nc3ccc(N4CCN(C)CC4)cc3)nc21` is recorded as 0% (refers to: gum pain; healthy male subjects; oral, 150 mg, study, with: rifampin).
With `C[C@@H]1COCCN1c1cc(C2([S@](C)(=N)=O)CC2)nc(-c2cc[nH]c3nccc2-3)n1` the Constipation incidence was 0% (Japanese advanced solid tumour patients; oral, 160 mg twice daily, any grade).
With `CO[C@H]1C[C@@H]2CC[C@@H](C)[C@@](O)(O2)C(=O)C(=O)N2CCCC[C@H]2C(=O)O[C@H]([C@H](C)C[C@@H]2CC[C@@H](OC(=O)NCCOCCOCCOCCOCCOCCOCCOCCOCCC(=O)N3CCc4cc(Cn5nc(-c6ccc7oc(N)nc7c6)c6c(N)ncnc65)ccc4C3)[C@H](OC)C2)C[C@@H](O)[C@H](C)/C=C(\C)[C@@H](O)[C@@H](OC)C(=O)[C@H](C)C[C@H](C)/C=C/C=C/C=C/1C` the unbound Cmax was 3.7 to 14.7 nM (mice, plasma; intraperitoneal, 3 mg/kg, weekly dosing).
`COc1cc2[nH]c(C)c(-c3cccnc3)c(=O)c2cc1Cl` has a Papp of 10 ×10⁻⁶ cm/s (PAMPA; pH 7.4).
For `O=C1NCCc2nc(OCc3cccc(F)c3)ccc21`, “Irwin test score” read 0 (refers to: loss of Righting; Sprague-Dawley rat male; oral, 100 mg/kg, 4 h; direction not given).
`CCOc1ccc2nc(NC(=O)c3cc(=O)c4ccc(C)cc4o3)sc2c1` has a maximum haemolysis of 1.49% (sheep erythrocytes; 1 h, pH 7.5).
For `Cc1nc2ccc(OCc3ccc(C(F)(F)F)cc3)cc2[nH]1`, the C0 was 6870 ± 722 ng/mL (Balb/c mice, male, plasma; intravenous, 1 mg/kg).
With `[18F]c1ccc(-c2ccc3c(c2)[nH]c2ccncc23)cn1` the SUV was 0.628 ± 0.146 (ex vivo biodistribution; APP/PS1 mouse, AD model, bone; intravenous, 30 min).
For `C[C@@]1(c2cc(NC(=O)c3ccc(C#N)cn3)ccc2F)C=CSC(N)=N1`, the dose-normalised AUC(0-inf) was 84.9 ng·h/mL (elderly humans, both sexes, plasma; oral, 30 mg single dose).
With `COc1cc2[nH]c(C)c(-c3ccc(N4CCN(C)CC4)nc3)c(=O)c2cc1Cl` the Papp was less than 5 ×10⁻⁶ cm/s (PAMPA; pH 7.4).
For `O=C(O)CCC(=O)O.[2H]C([2H])([2H])Oc1cc(C)c2[nH]ccc2c1CN1CC[C@@H](C2CC2)C[C@H]1c1ccc(C(=O)O)cc1`, the CLss/F was 2.16 L/h (human, plasma; 50 mg twice daily, day 10, multiple ascending dose).
The AUC(0-12 h) of `C[C@@H](Nc1cc(F)cc(F)c1)c1cc(C(=O)N(C)C)cc2c(=O)cc(N3CCOCC3)oc12` is reported as 3370 ng·h/mL (refers to: M1 metabolite; human; oral, 240 mg, single dose day 1, 2:5 BID regimen).
`COc1cc2nccc(Oc3ccc(NC(=O)c4cc5c(n(-c6ccccc6)c4=O)CCCC5=O)nc3)c2cc1OC`: “grade ≥3 Leucocytosis patients” 10% (relapsed or refractory AML; oral, all dose levels).
With `COCc1cc(C(=O)Nc2cc([C@H]3CC[C@@H](OC(=O)NC(C)C)C3)[nH]n2)n(C)n1` the unbound C24h was 57 nM (OVCAR-3 xenograft, NOD/SCID gamma mice, plasma; oral, 50 twice daily, PK/PD study).
`Cl.[2H]C([2H])([2H])CC(=O)c1cnc(NC(=O)C2CC2)cc1Nc1cccc(-c2ncn(C([2H])([2H])[2H])n2)c1OC` has a Cmax of 98.1 ng/mL (geometric mean; human; oral, 10 mg once daily, day 1, fasted, liquid, multiple dose).
`Cc1ccc2ccc(C(=O)O)c(O)c2n1` has a pKa (basic) of less than 2.
For `Cc1cc(-c2nnc(N)nc2-c2ccc(F)cc2)cc(Cl)n1`, “patients with immune-mediated AE” read 0% (refers to: psoriasiform dermatitis; IO-naive mCRPC patients, male; oral, dose not given, treatment-related, grade 1).
`Cc1c(-c2ccc(N3CCc4cccc(C(=O)Nc5nc6ccccc6s5)c4C3)nc2C(=O)O)cnn1CC12CC3(C)CC(C)(C1)CC(OCCNCC[C@H](O)CO)(C3)C2` — result for “mean arterial pressure change”: -35% (beagle dog, male, anaesthetised; intravenous infusion, 0.3 mg/kg/min, 105 min; relative to: vehicle).
For `C[N+]1(C)[C@@H]2C[C@@H](OC(=O)C(O)(c3cccs3)c3cccs3)C[C@H]1[C@@H]1O[C@@H]12`, the fraction unbound was 0.81 (equilibrium dialysis; dog, plasma).
`CCOc1c([C@H](C)n2nc(C)c3c(N)ncnc32)cc(Cl)c(F)c1[C@@H]1CNC(=O)C1` — result for “LSM change in QRS interval”: no more than 4.19 ms (previously treated B-cell malignancy patients; oral, dose not given).
With `CC(NC(=O)C(C#N)=Cc1cccc(Cl)c1Cl)c1ccccc1` (stereo not drawn) the labelling was 43.2% (Ubiquitin carboxyl-terminal hydrolase isozyme L1 (UCHL1, Homo sapiens, UniProt P09936); covalent, intact protein LC-MS; 12.5 µM).
With `COc1ccc2c(c1)CN(C(=O)CCN1CCC(Cc3ccccc3)CC1)CC[S@@+]2[O-]` the QT interval was 222 ± 13 ms (telemetry; conscious male beagle dogs; intravenous, 2 mg/kg, 2 h).
Under “mean blood pressure”, `CCCCc1oc2ccccc2c1C(=O)c1cc(I)c(OCCN(CC)CC)c(I)c1` is recorded as 36 ± 0.1 mmHg (male Hartley guinea pigs, anaesthetized; intravenous, 10 mg/kg group, baseline before infusion).
Under “decreased lymphocyte count incidence”, `COc1cc(Nc2ncc3c(n2)-c2ccc(Cl)cc2C(c2c(F)cccc2OC)=NC3)ccc1C(=O)O` is recorded as 38% (patients; oral, dose not given, grade 1, any attribution, with: pembrolizumab).
`Cc1ccc(C(=O)N(CCCN)C(c2nc3snc(C)c3c(=O)n2Cc2ccccc2)C(C)C)cc1` (stereo not drawn): “patients with adverse events” 0% (refers to: Hyperbilirubinemia; human patients; intravenous, 16 mg/day, CTCAE grade ≥3).
The unbound fraction of `CN(C)c1ccc2c(c1)c(=O)n(-c1ccc(C[C@H](NC(=O)c3c(Cl)cccc3Cl)C(=O)O)cc1)c(=O)n2C` is reported as 0.053 (cynomolgus monkey, liver).

Repeated from above:
`Cc1cnc(N2CC3(CCOCC3)C2)c(C(=O)Nc2ccc(C(=O)N3CCc4cc(C(=O)Nc5c(C)cccc5F)sc4-c4ccccc43)cc2)c1` has a plasma clearance of roughly 50% (rat; intravenous, 0.1 mg/kg; relative to: hepatic blood flow).
`CCN1/C(=C/C(C)=O)Sc2ccc(F)cc21` — result for “diastolic blood pressure change”: 105 ± 7.8% (cynomolgus monkey; oral, 10 mg/kg, 0.5 h post-dose; relative to: pre-dose).
With `N#C[C@@]12C[C@@H]1[C@@H](n1cnc3c(N[C@@H](C4CCC4)C4CC4)nc(I)nc31)[C@H](O)[C@@H]2O` the Vd was 72.2 L/kg (Wistar rat, male, plasma; oral, 10.0 mg/kg).
For `CNCCOC12CC3(C)CC(C)(CC(Cn4ncc(-c5ccc(N6CCc7cccc(C(=O)Nc8nc9ccccc9s8)c7C6)nc5C(=O)O)c4C)(C3)C1)C2`, “QTcV interval change” read 13 ms (beagle dog, male, anaesthetised; intravenous bolus, 0.03 mg/kg, 90 min; relative to: baseline).
For `Cc1ccc(C(=O)Nc2ccnc(S(N)(=O)=O)c2)c(N2CCCC(F)(F)CC2)n1`, “unbound plasma concentration” read 198 ± 14.5 nM (rhesus monkey, plasma; intravenous, dose not given, 60 min).
